Measurements pooled from the literature.
Protocols differ between the studies behind these lines. pEC50, pIC50, pKd: −log10 of the molar value.
YWHAG/RELA phospho-Ser45 p65 peptide: YWHAG/RELA, phospho-Ser45 p65 peptide (Homo sapiens, UniProt P61981+Q04206)
Nuclear receptor subfamily 2 group C member 2 ligand-binding domain: Nuclear receptor subfamily 2 group C member 2, ligand-binding domain (Homo sapiens, UniProt P49116)

Compound | target | test | test system | setting | endpoint | result
CN1CC2c3ccccc3Oc3ccc(Cl)cc3C2C1 (centres unmarked) | HTR1A (Homo sapiens, UniProt P08908, S199A) | agonist |  |  | pEC50 | 8.17
CC[C@@H]1[C@H](F)C(=O)N[C@@H]1COc1nccc2cc(C(N)=O)c(OC)cc12 | MARK2 (Homo sapiens, UniProt Q7KZI7) | ATP probe binding, KiNativ profiling, item: Lys1 probe site | THP-1 cell lysate |  | pIC50 | 5.41
CC(C)C[C@H](NC(=O)[C@H](CCCNC(=N)N)NC(=O)[C@@H](NC(=O)[C@H](CC(C)C)NC(=O)[C@H](Cc1ccccc1)NC(=O)[C@H](CC(N)=O)NC(=O)[C@H](C)NC(=O)CCCCCNC(=S)Nc1ccc2c(c1)C(=O)OC21c2ccc(O)cc2Oc2cc(O)ccc21)C(C)C)C(=O)N[C@@H](CCC(N)=O)C(=O)N[C@H](C(=O)N[C@@H](Cc1ccc(O)cc1)C(=O)N1CCC[C@H]1C(=O)N[C@@H](CCCNC(=N)N)C(=O)N[C@H](C(=O)N[C@@H](CC(N)=O)C(=O)N[C@H](C(=O)NCC(=O)N[C@@H](C)C(=O)N[C@@H](CC(N)=O)C(=O)N[C@H](C(=O)N1CCC[C@H]1C(N)=O)[C@@H](C)O)C(C)C)[C@@H](C)O)[C@@H](C)O | Calcitonin receptor, extracellular domain (CALCR, Homo sapiens, UniProt P30988) | peptide binding, fluorescence polarization |  | pH 7.4 | pKd | 7.01
CN1CCCN(c2cc(C=O)ccc2[N+](=O)[O-])CC1 | YWHAG/RELA phospho-Ser45 p65 peptide | ternary complex formation, stabilizer, fluorescence anisotropy |  |  | pEC50 | < 3.00
CN(C)CCC(c1ccc(Cl)cc1)c1ccccn1 (centres unmarked) | Nuclear receptor subfamily 2 group C member 2 ligand-binding domain | SPR imaging |  |  | pKd | 10.40
CCCN1CCN(c2ccc(-c3cncc(Cl)c3N3CCC4(CCNC4=O)CC3)cc2)CC1 | CAMK2G (Homo sapiens, UniProt Q13555) | SILAC displacement | LS174T-L5 cell lysate |  | pKd | < 4.94
N#C[C@@H]1CCCN1C(=O)CNC12CC3CC(CC(O)(C3)C1)C2 | Nuclear receptor subfamily 2 group C member 2 ligand-binding domain | SPR imaging |  |  | pKd | 9.49
O=Cc1ccc([N+](=O)[O-])c(O)c1 | YWHAG/RELA phospho-Ser45 p65 peptide | ternary complex formation, stabilizer, fluorescence anisotropy |  |  | pEC50 | < 3.00
Nc1nc2c(ncn2[C@@H]2O[C@@H]3COP(=O)(O)O[C@H]4[C@@H](O)[C@H](n5cnc6c(=O)[nH]c(N)nc65)O[C@@H]4COP(=O)(O)O[C@H]3[C@H]2O)c(=O)[nH]1 | Cell cycle histidine kinase CckA, DHp-CA domains (Caulobacter vibrioides, UniProt Q9X688) | isothermal titration calorimetry | Caulobacter crescentus | 12 °C, added: AMPPNP 5 mM | pKd | 4.48
CN[C@@H]1[C@H](O)[C@H](NC)[C@H]2O[C@@]3(O)C(=O)C[C@@H](C)O[C@H]3O[C@@H]2[C@H]1O | Nuclear receptor subfamily 2 group C member 2 ligand-binding domain | SPR imaging |  |  | pKd | 10.43
COC(=O)C[C@@H]1N=C(c2ccc(Cl)cc2)c2c(sc(C(=O)NCCOCCNC(=O)C[C@@H]3N=C(c4ccc(Cl)cc4)c4c(sc(C)c4C)-n4c(C)nnc43)c2C)-n2c(C)nnc21 | Bromodomain testis-specific protein, BD2 (BRDT, Homo sapiens, UniProt Q58F21) |  |  |  | pKd | 10.18
CC(C)C[C@@H]1NC(=O)[C@H](C(C)C)NC(=O)CNC(=O)[C@H](CC(N)=O)NC(=O)[C@@H]2CCCN2C(=O)[C@H](Cc2ccc(O)cc2)NC(=O)[C@H](CCCNC(=N)N)NC(=O)[C@H](C)NC(=O)[C@@H](NC(=O)[C@H](CCCCN)NC(=O)[C@@H]2CCCN2C(=O)[C@H](CO)NC(=O)[C@H](C)NC(=O)[C@@H](N)Cc2ccc(O)cc2)CSSC[C@@H](C(=O)N[C@H](C(N)=O)[C@@H](C)O)NC(=O)[C@H](C)NC1=O | Alpha-2-HS-glycoprotein, asialo (AHSG, Bos taurus, UniProt P12763) | binding, isothermal titration calorimetry |  | pH 7.0, 25 °C, added: asialofetuin | pKd | 3.69
O=C(O)Cc1cn2nc(-c3ccc(Cl)cc3)ccc2n1 | CAMK2A (Homo sapiens, UniProt Q9UQM7) | surface plasmon resonance |  | pH 7.4, HBS-P buffer | pKd | 6.02
N[C@@H](CCC(=O)N[C@@H](CS)C(=O)NCC(=O)O)C(=O)O | Cu(I) | binding, bicinchoninic acid competition |  | 4000 µM, added: bicinchoninic acid 40 µM | pKd | 10.51

Repeated from above:
Compound | target | test | test system | setting | endpoint | result
CN1CCCN(c2cc(C=O)ccc2[N+](=O)[O-])CC1 | YWHAG/RELA phospho-Ser45 p65 peptide | ternary complex formation, stabilizer, fluorescence anisotropy |  |  | pEC50 | < 3.00
